Measured values from different studies.
Numbers after ± are the reported error.
Target: Prothrombin (F2, Homo sapiens, UniProt P00734)

CC(C)C[C@H](NC(=O)CNC(=O)CNC(=O)[C@H](CCCNC(=N)N)NC(=O)CNC(=O)[C@@H]1CCCN1C(=O)[C@H](CC(=O)O)NC(=O)[C@H](CS)NC(=O)[C@H](Cc1ccccc1)NC(=O)[C@H](CC(=O)O)NC(=O)[C@H](CC(N)=O)NC(=O)[C@H](Cc1ccc(O)cc1)NC(=O)[C@H](CC(N)=O)NC(=O)[C@H](CCCNC(=N)N)NC(=O)[C@@H](N)CCC(=O)O)C(=O)O
bound fraction (binding, dot blot; 1 h, room temperature, added: thrombin 250 nM): ≥ 25%

Cc1ccc(C(=O)Nc2ccc(CN)cc2)c(O)c1
inhibition (enzyme activity, inhibitor; 10 µM): < 20%

CC(=O)O[C@@H]1[C@H](OC(C)=O)C[C@@]2(C)[C@@H](CC[C@@H](C)C23Cc2c(O)cc4c(c2O3)CN(CCCCNC(=N)N)C4=O)C1(C)C (stereo partly shown)
inhibition (enzyme activity, inhibitor, fluorescence; 200 µM): 72%

CC(C)c1ccc(C(=O)Nc2ccc(CN)cc2)c(O)c1
inhibition (enzyme activity, inhibitor; 10 µM): < 20%

C#CCC[C@H](NC=O)C(=O)N[C@H]1CSCc2cccc(c2)CSC[C@@H](C(=O)NCC(=O)N[C@@H](CO)C(=O)NCC(=O)N[C@@H](CO)C(=O)N[C@@H](CC(C)(C)C)C(=O)NCC(=O)N[C@@H](Cc2c[nH]cn2)C(=O)N[C@@H](Cc2c[nH]cn2)C(=O)N[C@@H](Cc2c[nH]cn2)C(=O)N[C@@H](Cc2c[nH]cn2)C(=O)N[C@@H](Cc2c[nH]cn2)C(=O)N[C@@H](Cc2c[nH]cn2)C(=O)N[C@@H](CCON=C(N)N)C(=O)N[C@@H](CC(C)(C)C)C(=O)O)NC(=O)CNC(=O)[C@H](C/C=C/CN)NC(=O)[C@H]([C@H](O)CC)NC(=O)[C@H](C)NC(=O)[C@H]([C@@H](C)CC)NC(=O)[C@H](Cc2ccc(O)c(F)c2)NC(=O)[C@H](CO)NC(=O)[C@H](CC(N)=O)NC(=O)[C@H](CCC(N)=O)NC(=O)[C@H](CC(C)(C)C)NC1=O
Kd fold increase (binding, equilibrium ultrafiltration; relative to: linear peptide over cyclic peptide): 11 to 80 fold

CSCC[C@H](NC(=O)[C@@H](N)Cc1ccc(O)cc1)C(=O)N[C@@H](CO)C(=O)N[C@@H](Cc1ccccc1)C(=O)N[C@H](C(=O)N[C@@H](CCCNC(=N)N)C(=O)N[C@@H](CCCNC(=N)N)C(=O)N[C@H](C(=O)N[C@@H](CCC(=O)O)C(=O)N[C@@H](CO)C(=O)N[C@@H](CC(=O)O)C(=O)N[C@@H](CCCCN)C(=O)N[C@@H](CC(C)C)C(=O)N[C@@H](Cc1c[nH]cn1)C(=O)N[C@@H](CO)C(=O)O)[C@@H](C)O)[C@@H](C)O
bound fraction (binding, dot blot; 1 h, room temperature, added: thrombin 250 nM): ≥ 25%

CC(C)CCC[C@@H](C)[C@H]1CC[C@H]2[C@@H]3CC=C4C[C@@H](OS(=O)(=O)O)CC[C@]4(C)[C@H]3CC[C@]12C
Hill coefficient (binding, intrinsic fluorescence titration; pH 7.4, 25 °C): 1.7 ± 0.3

CC[C@H](C)[C@H](NC(=O)[C@@H]1CSSC[C@H](NC(=O)[C@H](Cc2ccc(O)cc2)NC(=O)CN)C(=O)N[C@@H](CO)C(=O)N[C@@H](CCCNC(=N)N)C(=O)N[C@@H](CO)C(=O)N[C@@H](Cc2ccc(O)cc2)C(=O)N2CCC[C@H]2C(=O)N2CCC[C@H]2C(=O)N[C@@H](C(C)C)C(=O)N1)C(=O)N1CCC[C@H]1C(=O)N[C@@H](CC(=O)O)C(=O)O
selectivity ratio (relative to: Ki thrombin over Ki MASP-2): 1280

Cc1ccc(C(=O)Nc2ccc(CP(=O)(O)O)cc2CP(=O)(O)O)cc1NC(=O)c1cccc(NC(=O)Nc2cccc(C(=O)Nc3cc(C(=O)Nc4ccc(CP(=O)(O)O)cc4CP(=O)(O)O)ccc3C)c2)c1
selectivity ratio (enzyme activity, inhibitor; relative to: factor XIa over thrombin): > 67.6 fold

CC[C@H](C)[C@@H]1NC(=O)[C@@H](NC(=O)[C@H](CCSC)NC=O)CSCc2cccc(c2)CSC[C@@H](C(=O)N[C@H](C(=O)NCC(=O)N[C@@H](CO)C(=O)N[C@@H](CC(C)C)C(=O)NCC(=O)N[C@@H](Cc2c[nH]cn2)C(=O)N[C@@H](Cc2c[nH]cn2)C(=O)N[C@@H](Cc2c[nH]cn2)C(=O)N[C@@H](Cc2c[nH]cn2)C(=O)N[C@@H](Cc2c[nH]cn2)C(=O)N[C@@H](Cc2c[nH]cn2)C(=O)N[C@@H](CCCNC(=N)N)C(=O)N[C@@H](CC(C)C)C(=O)O)C(C)C)NC(=O)[C@H](CCCNC(=N)N)NC(=O)CNC(=O)[C@@H]2CCCN2C(=O)[C@H](CC(=O)O)NC(=O)[C@H](CCCNC(=N)N)NC(=O)[C@H](CO)NC(=O)[C@H](CCCCN)NC(=O)[C@H](CCCCN)NC(=O)[C@H]([C@@H](C)CC)NC1=O
Kd fold increase (binding, equilibrium ultrafiltration; relative to: linear peptide over cyclic peptide): 11 to 80 fold

Cc1cc(-c2ccc(/N=N/c3ccc4c(S(=O)(=O)O)cc(S(=O)(=O)O)c(N)c4c3O)c(C)c2)ccc1/N=N/c1ccc2c(S(=O)(=O)O)cc(S(=O)(=O)O)c(N)c2c1O
Hill slope (enzyme activity, inhibitor, thrombin chromogenic substrate hydrolysis; pH 7.4, 25–37 °C): 2.6 ± 1

CC[C@H](C)[C@H](NC(=O)[C@@H]1CSSC[C@H](NC(=O)[C@H](Cc2ccc(O)cc2)NC(=O)CNC(C)=O)C(=O)N[C@@H](CO)C(=O)N[C@@H](CCCNC(=N)N)C(=O)N[C@@H](CO)C(=O)N[C@@H](Cc2ccc(O)cc2)C(=O)N2CCC[C@H]2C(=O)N2CCC[C@H]2C(=O)N[C@@H](C(C)C)C(=O)N1)C(=O)N1CCC[C@H]1C(=O)N[C@@H](CC(=O)O)C(N)=O
selectivity ratio (relative to: Ki thrombin over Ki MASP-2): 7130

CC(C)C[C@H](NC(=O)[C@H](Cc1c[nH]cn1)NC(=O)[C@@H](NC(=O)[C@H](CCCNC(=N)N)NC(=O)CNC(=O)[C@@H]1CCCN1C(=O)[C@H](CC(=O)O)NC(=O)[C@H](CC(=O)O)NC(=O)[C@H](CO)NC(=O)[C@@H]1CCCN1C(=O)[C@H](CC(N)=O)NC(=O)[C@H](Cc1ccc(O)cc1)NC(=O)[C@H](Cc1c[nH]cn1)NC(=O)[C@H](CCCNC(=N)N)NC(=O)[C@@H](N)Cc1c[nH]c2ccccc12)C(C)C)C(=O)O
bound fraction (binding, dot blot; 1 h, room temperature, added: thrombin 250 nM): ≥ 25%

Excerpt of the above:
CC(C)C[C@H](NC(=O)CNC(=O)CNC(=O)[C@H](CCCNC(=N)N)NC(=O)CNC(=O)[C@@H]1CCCN1C(=O)[C@H](CC(=O)O)NC(=O)[C@H](CS)NC(=O)[C@H](Cc1ccccc1)NC(=O)[C@H](CC(=O)O)NC(=O)[C@H](CC(N)=O)NC(=O)[C@H](Cc1ccc(O)cc1)NC(=O)[C@H](CC(N)=O)NC(=O)[C@H](CCCNC(=N)N)NC(=O)[C@@H](N)CCC(=O)O)C(=O)O
bound fraction (binding, dot blot; 1 h, room temperature, added: thrombin 250 nM): ≥ 25%
